Experimental data collected from several papers.
Numbered parts are unrelated; each lists some results of a single study. Substitutions count along the parent as printed.

Sample 1 — target: CCNB1, cyclin fold, Cln2 fusion (human); technique: yeast growth competition, sequencing; medium: yeast; setting: weak parent motif; reference: not given; reading: higher = stronger binding
Starting sequence: WEE1 docking peptide (human); CTLRQKLIFSPCS
Change | normalised enrichment score
CTLRQKLIFAPCS [S10A] | 0.246
ATLRQKLIFSPCS [C1A] | 0.154
CTLRQKLIASPCS [F9A] | 0.149
CTLRQKLIFSPAS [C12A] | 0.68
CTLRQKAIFSPCS [L7A] | 0.214
CTLRAKLIFSPCS [Q5A] | 0.566

Sample 2 — technique: EMSA with sequencing; form: double-stranded DNA, one strand shown; medium: in vitro; tested at: 10 and 20 nM; reference: negative control set to 0; reading: higher = stronger binding
Target: Hepatocyte nuclear factor 3-alpha (Foxa1, Mus musculus, UniProt P35582, residues 1-468, full length assumed)
Setting: whole designed probe, mean of two concentrations, ends assumed
Constant ends, left off below: GTGAGCGGTGCCCATTGATGGGGAAC … TTTCACTGGGATCGTGGGGAC
Residues (chain): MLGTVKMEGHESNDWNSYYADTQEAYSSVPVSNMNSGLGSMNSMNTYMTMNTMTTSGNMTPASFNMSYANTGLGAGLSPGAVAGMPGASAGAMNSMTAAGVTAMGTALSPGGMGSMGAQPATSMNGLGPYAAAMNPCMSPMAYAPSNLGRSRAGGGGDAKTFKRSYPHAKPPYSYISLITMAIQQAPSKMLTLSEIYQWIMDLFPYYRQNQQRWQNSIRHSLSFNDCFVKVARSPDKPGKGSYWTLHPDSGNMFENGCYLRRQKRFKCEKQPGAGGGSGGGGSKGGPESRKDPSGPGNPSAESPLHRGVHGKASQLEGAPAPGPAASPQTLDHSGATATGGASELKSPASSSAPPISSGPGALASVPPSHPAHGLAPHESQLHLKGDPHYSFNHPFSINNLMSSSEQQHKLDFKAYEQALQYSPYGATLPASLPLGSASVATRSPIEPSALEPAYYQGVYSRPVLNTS
Oligonucleotide | normalised bound fraction [ratio]
TACATAACTGAACAGTGATTAAATATTGACTAAGAGCCAGGAGTTGACAGCCATTGGCCTCACCCTGGTAAATGCTGATATATGATGCTGAATGTAAATACAGAGCCATCCTCTCAGGGCCATAGTTTTGTTGGTTTTTTTTTTTTTTTTCTGTTGGGAGATGGGGAGCCAGCAAGTTGTAGCTTATGCTTGA | 0.284
CTTGATTTATGGCTAGAATATGACATACATGAGCATTTGCCTTTCCTAAGATAATTCACAAGCATCCCCCCAAAAAATATAGATAGGGATCAAAGTAATCTAACAAACAAACAAAAACAGAAGCAATTGAATTTGACCTTATAATGGTCATAAAGTGATGATGGACATGACCAAAGCCACAACATCAGTAGAA | 0.232
TCTATTCAACAAATTAATTGATGTCTAGAAAAATTAATAAGGAATATTCAAGAAACGGTAACTTTTTAACCTTGCAAGAATATAAAAACAAAGTAATCTTCAACGAGAAATTTATTTGTAAATGAGACACCCAGGTGTATTCATTTGCATTTTATTAATGGAAATTTTTTCCTGAAATGACCATGAAACTTGA | 0.0343
ATACACAGCAGAGAAGTCACATCCTAGTTACTCTCACTTTCTACCTTGTATTACTACTTTTCGTACCCCTAGCTTATTGCTATTAGTACAATGTAATCTGGGAGTTCACACACACATACCCCTGGTCTAAGAAGAATAAAAAATGAAGGAGATTTCTGTTTGTATAGAAAACAGAAGTCACCTTGACTTTTAT | 0.138
CCTTGTATTCTTCAGATCTCATTTTCCCCCAAATTTCTGCAGTGGTTGGCTTCCATTTCAGCATCAGTCACGAAATCTTGATGCTCAGACACAGTAAACAGGGAAGGACATAAAATTAAGTGATTTGGGCGTAGTTTTGAGTCTCACAACTTTAACAGGGATGAGTCATACATTAAAGTATGTCGAAATAAAT | 0.0571
GACGGGCACCAGGAGCCCTGTGTCCTCTGCCTTGCAGGTGTTTAGGGAACATTGTTCAGACTGGAAGGAAGAGCCACGTGAAAATGCCCTTTCAGATTACTCTGCTGGGAAGGATATGAAGCCAAACAGAACCAGCTACGGGAGTCTTTCGACCGCAAGACAAAAGGTCCTTTGCCCCCACTACCTGCAACTT | -0.0393
TGATGATACGTTATAGCATTTCTCTGCTCTGTAAGAGAGGCACCAGGGTCGTGTGCTGGGTCTGGGGTTTGTCCATTCCACATCCGGTGCTGCAGATGACTCTGGTGTCGGCCGCTGGTGAGCTGGCTGTAGCTGGTCACCTCTGGGTGGTTTCTGGGGCGGTCGCAGGCTGACTAACACACCAAAGGTCAGC | -0.0663
CCTAGGACTGTTCCTCCCAGAGCGAGAAAGACCTCCAGGCCCTGAGCCGTGCCAGGAAATGGCCCTAGGATTGCCTCATTAAACACGAAGGGCTATTTACACTGGAGAAACAAATATTTATCTCTGGATCGAGAAGGAGGAAGGGCTTTGGAACCCCAGTCTGGCTCAGCCCTGCCTGGTAGGAGGGGGAGGA | 0.188

Sample 3 — technique: RNA Bind-n-Seq; form: RNA; medium: in vitro; tested at: 365 nM; reference: no-protein control; reading: higher = stronger binding
Target: RNA binding protein fox-1 homolog 2, RRM domain, GST-SBP tag (RBFOX2, Homo sapiens, UniProt O43251-10, residues 100-194)
Setting: natural RNA segment, single round, ends assumed
Constant ends, left off below: GGGAGUUCUACAGUCCGACGAUC … UGGAAUUCUCGGGUGCCAA
Target sequence (chain): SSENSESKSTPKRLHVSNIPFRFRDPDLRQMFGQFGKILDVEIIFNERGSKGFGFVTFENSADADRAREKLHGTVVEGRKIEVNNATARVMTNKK
Oligonucleotide | RBNS enrichment (R)
CCUUCCAAGUUGUCUUGAAGAAUCCUUGCUGCUAACUCUGGAUCCUGCUUUUCCUAUAGUCAGAGGGCUCCAAGGUAGAACUCUCUAAGUCCCUCUCAAUGGCACUCUUU | 0.944
UAGGCUGUGUUGUUCGCCCAGGUUUCUGCAUCUUGCACUUUGACAUUCCCAAGAGGGAAGGGACUAGUGGGAGAGAGCAAGGGAGGGGAGGGCACAGACAGAGAGGCUAC | 0.881
GCUAUUUGCCUGGCUCCAGCAGAUGAUGAGAUAAUGAGGUAGUGGGUUUUUUAUUACUGUUCCAUUUUGCAACAUCCUGCAACACCAUCCUGGGAGACAAGAGCAUUACC | 0.492
UAAUCAUCUAAUUGUUUUUGUCUAGGUCGAGAAUGAAUGUUAGCUGAUGAAAUAAACCCUGACAAGGGUGGCGGGUGUGCUGUGGUCUCUGCGGGCAUAGCUGCCCCUCC | 0.432
ACUUUCAGAUUCCUGUGGAAUUGUGAAUUCAUACUAAGCUUUCUGUGCAGUCUCACCAUUUGCAUCACUGAGGAUGAAACUGACUUUUGUCUUUUGGAGAAAAAAAACUG | 0.412
CCCAUCCCUAAACGAUGUUGUUUUGUUUUUAUUUUUUUCCUUAAUUUGCACGAAAACAGAAAUUCCAUAUCAAUGUGCCUUGCCCUGGAUAGUGAUUAUUUGUGGAAUUG | 10.3
CUGACCACGCCCCUCGGCGGGGCCGCCCUCUGCUCCAGCCCUCCCGAUUAAAGCGUGCCCCGGUCCAUACUGUGUCUGUGUUUGUGUUGCGCAUAAGGCAGUAGUGCCUU | 0.756
ACCGCUCAGAGAGCCAUGGUUGCUCAGGGAUGCUGCUCCGGGAUGCUUGACUAACAGUCGAGGCAGUGAACUGGGUGUAGAAAGCGUCAGGAAAUGGCCACAUGUGUGGA | 0.331
AACAUUUUGUAACAUUGUGCUUCCUUGUAGUUUGUAAUGUGAGUUCAAUCAGUAUUUAUGUUGAAAUUUCUAACAUUAAAUCUAGUCUCUAUCCUGUUAAUUUAAUUUUU | 1.68
CUCCUACCAUCACCACCAUCACCACCACCCACAAGCACUGCCCCCCUUCCCAUCCGUCCUCCCUCAGGAACCAAGAAGUCCAAGAAGGGACGGGGCCGCUCAGGGCGUUA | 0.686
CUUUGCAUGGUGCUUAGUCAAGGACUCCUGCGACCUGGCUCCCGAGGUCAGCUGGCGGCGCUGACACACAUGCAUGGCAGACUAUCCCUGGCUCUAUCUCCCUGUUCCUC | 14.6
UAUACAAACAUAAGUUUAUUUUAUAUGCCCAGAUGUCUACAGAGACCCUUUUUGUAAAUGUCAAGGACAUUUGGAUUUACUUUUACAGAAUAUUGAAAAGAUAAGACAAA | 0.269

Sample 4 — technique: Sort-seq; measured: YFP reporter; medium: E. coli; setting: PhoQ-PhoP variant library; together with: 10 µM Mg2+; reference: high Mg2+ state; reading: higher = stronger signaling
Molecule: PhoQ, residues 284 288 289 292 302 303 TNSAEL
target | fold induction
PhoP, residues 12 14 15 18 19 LHTVL (Escherichia coli, UniProt P23836) | 24.9
PhoP, residues 12 14 15 18 19 NQCAL (Escherichia coli, UniProt P23836) | 12.3
PhoP, residues 12 14 15 18 19 TQAML (Escherichia coli, UniProt P23836) | 16.9

Sample 5 — technique: protein binding microarray; form: double-stranded DNA, one strand shown; medium: in vitro; tested at: not given; reference: not given; reading: higher = stronger binding
Target: Histone acetyltransferase KAT6A, winged helix 2, GST fusion (KAT6A, Homo sapiens, UniProt Q92794, residues 85-181)
Setting: 8-mer, flanks averaged, mean of 2 arrays, mostly near background
Residues (chain): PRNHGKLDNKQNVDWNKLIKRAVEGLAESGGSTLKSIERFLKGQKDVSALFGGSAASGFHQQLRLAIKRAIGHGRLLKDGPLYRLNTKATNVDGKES
Oligonucleotide | E-score
CCAATCAA | 0.0209
CCGCCCAG | 0.191
CGAATGTC | 0.0166
CTTGATGA | 0.0305
AACTTTGG | -0.0713
CGTCGCCC | 0.0724
TCACGTCA | -0.0511
ACTCGCCG | 0.0221
AAAAATGC | 0.16
AGGGTGCC | -0.0745
CCCCCCAA | -0.0022
CATCGTGC | 0.0601
CTTTAATA | 0.0916
TAGCGGAA | -0.0195
AACAAGTG | -0.0688
ATTAAAAC | 0.193
GTATTGTA | -0.14
CGTCGCTC | 0.104
AACCGCCC | 0.153
AATGCGAT | 0.00357
TAAGATCA | -0.0134
AGCCTCAG | 0.0299
CGGGACGC | 0.0135
CCGCTGGC | 0.177
AAGCTATT | -0.256

Sample 6 — target: XBP1, bZIP domain (human); technique: DHFR protein complementation; medium: yeast; reference: wild-type JUN-FOS pair; reading: higher = stronger binding
Setting: single substitutions, most at no-binding floor
Starting sequence: JUN, bZIP domain (human); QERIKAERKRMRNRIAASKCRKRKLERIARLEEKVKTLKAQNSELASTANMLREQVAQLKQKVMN; partner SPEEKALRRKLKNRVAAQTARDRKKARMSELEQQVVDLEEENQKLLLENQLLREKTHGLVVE
Change | binding fitness
K39C | -1.3 natural log
A46N | -0.836 natural log
I28R | -1.12 natural log
A40I | -0.738 natural log
I28S | -1.44 natural log
Q41R | -0.711 natural log
E32A | -1.21 natural log
M51W | -0.836 natural log
S43T | -0.586 natural log
E44I | -0.932 natural log
E44W | -1.25 natural log
A29H | -0.852 natural log
V35G | -1.4 natural log
R30P | -1.23 natural log

A few entries again (sample 5):
Oligonucleotide | E-score
CCGCCCAG | 0.191
ACTCGCCG | 0.0221
TAAGATCA | -0.0134
AAGCTATT | -0.256
CGGGACGC | 0.0135
AACCGCCC | 0.153
GTATTGTA | -0.14
